Results gathered from unrelated publications.
Lines come from different studies, so protocols differ. Values joined by “and” are separate records of one study, mostly repeats; a detail may differ. ± gives the spread as reported.
Chain of UniProt Q12769 (whole entry, looked up): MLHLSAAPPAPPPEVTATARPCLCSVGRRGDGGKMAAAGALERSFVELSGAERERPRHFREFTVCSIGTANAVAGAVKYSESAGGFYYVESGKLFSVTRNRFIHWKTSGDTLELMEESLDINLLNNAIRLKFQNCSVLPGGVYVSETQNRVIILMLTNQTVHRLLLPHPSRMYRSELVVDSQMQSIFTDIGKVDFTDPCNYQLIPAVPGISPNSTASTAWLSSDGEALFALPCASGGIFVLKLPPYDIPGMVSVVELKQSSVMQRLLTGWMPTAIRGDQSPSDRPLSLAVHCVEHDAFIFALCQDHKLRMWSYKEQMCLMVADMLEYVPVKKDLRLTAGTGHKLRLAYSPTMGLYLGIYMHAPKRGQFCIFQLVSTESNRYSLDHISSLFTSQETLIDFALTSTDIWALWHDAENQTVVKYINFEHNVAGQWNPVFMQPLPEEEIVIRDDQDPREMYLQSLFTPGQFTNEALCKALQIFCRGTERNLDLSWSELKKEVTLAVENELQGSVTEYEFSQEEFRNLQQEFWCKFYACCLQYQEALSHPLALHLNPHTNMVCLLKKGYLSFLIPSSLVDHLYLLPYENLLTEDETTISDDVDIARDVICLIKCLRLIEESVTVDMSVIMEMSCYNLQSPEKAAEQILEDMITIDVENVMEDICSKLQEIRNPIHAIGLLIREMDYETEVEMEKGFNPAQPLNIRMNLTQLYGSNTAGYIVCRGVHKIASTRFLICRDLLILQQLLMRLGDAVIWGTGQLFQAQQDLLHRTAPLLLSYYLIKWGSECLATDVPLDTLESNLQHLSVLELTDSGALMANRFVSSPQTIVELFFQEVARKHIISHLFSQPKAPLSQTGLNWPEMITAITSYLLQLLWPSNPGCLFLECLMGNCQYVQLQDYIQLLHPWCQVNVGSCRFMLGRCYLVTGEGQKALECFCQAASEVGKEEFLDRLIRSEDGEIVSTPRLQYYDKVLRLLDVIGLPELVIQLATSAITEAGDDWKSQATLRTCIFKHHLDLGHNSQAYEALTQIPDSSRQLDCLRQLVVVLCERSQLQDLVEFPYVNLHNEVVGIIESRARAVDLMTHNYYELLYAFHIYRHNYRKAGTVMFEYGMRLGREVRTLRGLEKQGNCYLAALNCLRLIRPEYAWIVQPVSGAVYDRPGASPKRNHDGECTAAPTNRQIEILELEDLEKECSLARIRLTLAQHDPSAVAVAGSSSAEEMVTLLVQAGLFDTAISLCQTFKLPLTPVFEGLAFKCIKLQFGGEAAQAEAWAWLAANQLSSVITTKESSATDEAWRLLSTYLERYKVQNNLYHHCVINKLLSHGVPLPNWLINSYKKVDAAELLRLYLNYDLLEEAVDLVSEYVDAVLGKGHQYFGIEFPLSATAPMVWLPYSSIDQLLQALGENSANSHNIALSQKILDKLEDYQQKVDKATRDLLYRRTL

CC[C@@]1(O)C(=O)OCc2c1cc1n(c2=O)Cc2cc3ccccc3nc2-1  inhibition (BT-12; cell viability, MTT; 10 µM, 72 h): 96.2%
C[C@@H]1O[C@@H](O[C@H]2C[C@@H](O)[C@]3(CO)[C@H]4[C@H](O)C[C@]5(C)[C@@H](C6=CC(=O)OC6)CC[C@]5(O)[C@@H]4CC[C@]3(O)C2)[C@H](O)[C@H](O)[C@H]1O  EC50 (iPSC-derived cardiomyocytes; concentration-response curve, item: MyBP-C/MYH ratio; 24 h): 0.8 µM
Cc1ccc2c(c1)C(=O)C1(O)CCN(c3ccccc3)C1=N2 (centres unmarked)  EC50 (A2058; cell motility, Boyden chamber; with: autotaxin 50 nM): 54 µM
Cn1nccc1Nc1nccc(-c2cc3c(s2)C(C)(C)N(CCN2CCOCC2)C3=O)n1  PI-positive cells (HCT116; IncuCyte; concentration not given, 36 (unit not given)): 18.7 count and 17.1 count and 12.4 count
O=C1NC(=O)N(CCc2ccc(F)cc2)C(=O)/C1=C/C=C/c1ccccc1  maximum efficacy (C127 LDR GFP reporter cells; silenced GFP reporter induction, activator, high-content imaging; independent samples, two-run mean): 106%
COc1ccc2c(c1)[nH]c1c(C)nccc12  DNA methylation (DU-145; bisulfite pyrosequencing, item: RASSF1A promoter CpG site 22; 10 µM, 16 h): 92.4%
CO[C@H]1/C=C\C=C(/C)C(=O)NC2=CC(=O)C(NCCN(C)C)=C(C[C@@H](C)C[C@H](OC)[C@H](O)[C@@H](C)/C=C(\C)[C@@H]1OC(N)=O)C2=O  fitted bottom MyBP-C/MYH ratio (iPSC-derived cardiomyocytes; concentration-response fit; baseline: vehicle): 41.2%
O=S(=O)(c1ccc(O)cc1)c1ccc(O)cc1  S phase cells (HepG2 spheroids; Hoechst flow cytometry; 0.10 µM, 96 h): 10.7 ± 4.16%
O=c1cc(-c2ccccc2)oc2cc(O)ccc12  imiquimod monohydroxylated metabolite formation (HaCaT keratinocytes; LC-MS; 5 µM, 6 h, benzo[a]pyrene-induced, with: imiquimod 0.5 µM): inhibited
Cc1c(O)c(O)cc2c1CC=C1[C@@]2(C)CC[C@@]2(C)[C@@H]3C[C@](C)(C(=O)O)CC[C@]3(C)CC[C@]12C  EC50 (iPSC-derived cardiomyocytes; concentration-response curve, item: MyBP-C/MYH ratio; 24 h): 8 µM
Nc1ncnc2c1ncn2[C@@H]1O[C@@H]2COP(=O)(O)O[C@H]3[C@@H](O)[C@H](n4cnc5c(=O)[nH]cnc54)O[C@@H]3COP(=O)(O)O[C@H]2[C@H]1O  fold enrichment (HFF-1; RNA sequencing, item: Reactome Nicotinate metabolism; upregulated pathways; baseline: mock): 11
C/C=C(/C)C(=O)O[C@H]1C(C)=C2[C@H]([C@@H]1OC(=O)CCCCCCC)[C@@](C)(OC(C)=O)C[C@H](OC(=O)CCC)[C@@]1(O)[C@H]2OC(=O)[C@@]1(C)O  normalized enrichment score (HEK-293T; RNA-seq GSEA, item: Hallmark E2F targets; 500 nM, 6 h; direction not given): -0.952
COc1c(C)c2c(c(O)c1C/C=C(\C)CCC(=O)O)C(=O)OC2  IC50 (SK-LMS-1; cell proliferation; uterus cancer): 0.708 µM
COC(=O)C1CCN(C(=O)c2ccc(NCc3cnc4nc(N)nc(N)c4n3)cc2)CC1  mitochondrial toxicity (786-O; high-content imaging, item: MitoTracker Red uptake; 10 µM): -6.11 ± 3.2%
C[C@H]1CN(c2n[nH]c3nc(N[C@H]4CC[C@H](NS(=O)(=O)CCC(F)(F)F)CC4)ncc23)CCO1  remaining binding (Nuclear pore complex protein Nup160 (Homo sapiens, UniProt Q12769); Kinobeads competition, item: NUP160; 0.032 µM, unit not given; baseline: vehicle): 1.56
Cc1nn(-c2nc3c(F)cc(F)cc3s2)c(O)c1C(c1ccc(C(F)(F)F)cc1)c1c(C)nn(-c2nc3c(F)cc(F)cc3s2)c1O  viability (RAW-ISG; CCK-8; 25 µM): 92.7% and 89.6% and 92% and 103%
CC(C)CN(C[C@@H](O)[C@H](Cc1ccccc1)NC(=O)O[C@H]1CO[C@H]2OCC[C@H]21)S(=O)(=O)c1ccc(N)cc1  EC50 (ΔE-expressing cells; ΔE mislocalization, high-content imaging): inactive
CCN(CC)c1ccc(C=NNC(=O)CSc2nc3ccccc3c(=O)n2Cc2ccc(S(N)(=O)=O)cc2)c(O)c1  CC50 (NCI-H226; NCI five-dose screen): > 100 µM
CC(C)N1CCC(NC2CCN(c3cccc(-c4cc5cc(F)ccc5[nH]4)c3)CC2)CC1  GI50 (SNB-75): 1.45 µM
CC(=O)O[C@H]1CC[C@@]2(C)[C@H](CC[C@@H]3[C@@H]2CC[C@]2(C)[C@@H](C4=CC(=O)OC4)[C@@H](OC(C)=O)C[C@]32O)C1  fitted bottom MyBP-C level (iPSC-derived cardiomyocytes; concentration-response fit; concentration not given; baseline: vehicle): 18.6%
O=S(=O)(Nc1ccc(-c2nc3cc(NS(=O)(=O)c4ccc(F)cc4)ccc3o2)cc1)c1ccc(F)cc1  EC50 (DLD-1 colorectal cancer; 48 h): 15 to 18 µM
COc1c(CCC[P+](c2ccccc2)(c2ccccc2)c2ccccc2)cc2c(c1OC)OCO2.[I-]  LC50 (SK-OV-3; SRB): > -4 log M
Nc1ncc(-c2nc(N3CCOCC3)nc(N3CCOCC3)n2)c(C(F)F)n1  GI50 (SR; 72 h): 0.176 µM
CC[C@H](C)[C@@H]1NC(=O)[C@@H]2CCCN2C(=O)[C@H](CC(C)C)NC(=O)[C@H](CC(C)C)NC(=O)CNC(=O)[C@@H](NC(=O)[C@@H](NC(=O)[C@H](CC(=O)O)NC(=O)CNC(=O)[C@@H](NC(=O)[C@H](C)NC(=O)CNC(=O)[C@H](CCCCN)NC(=O)[C@H](CC(C)C)NC(=O)[C@H](CC(C)C)NC(=O)[C@H](CCCCN)NC(=O)CNC(=O)[C@@H](NC(=O)[C@@H](N)CC(C)C)C(C)C)C(C)C)C(C)C)CSSC[C@@H](C(=O)O)NC1=O  log2 fold change (RNA-seq, item: Gipc3; mouse, traumatic brain injury model, frontal cortex and hippocampus; dose not given; baseline: TBI alone): -1.26
COc1cc(CCC[P+](c2ccccc2)(c2ccccc2)c2ccccc2)c(OC)c2c1OCO2.[I-]  mean Log10TGI (NCI60 panel; SRB): -4.88 log M
Oc1ccc(C(c2ccc(O)cc2)(C(F)(F)F)C(F)(F)F)cc1  G2 phase cells (HepG2 spheroids; Hoechst flow cytometry; 0.10 µM, 96 h): 20.5 ± 4.47%
Cn1cncc1C1=CN(c2ncnc3[nH]cnc23)CCS1  CC50 (IGROV-1; ovarian cancer): > 200 µM
CC1=CC(=O)c2c(O)cccc2C1=O  selectivity index (MOLT-3; XTT; baseline: IC50 MRC-5 over IC50 MOLT-3): 3.62
CC(c1ccccc1)(c1ccc(O)cc1)c1ccc(O)cc1  G1 phase cells (HepG2 spheroids; Hoechst flow cytometry; 1 µM, 96 h): 69.7 ± 7.18%
COc1ccc([C@H]2c3[nH]c4ccc(Cl)cc4c3CCN2C(=O)Oc2ccc(Cl)cc2)cc1  inhibition (human dermal fibroblasts with PBMC; cytokine secretion, item: sIL-10; 0.1 µM, 48 h): 81%
CN1CCN(C2(CNC3CCN(c4cccc(-c5cc6cc(F)ccc6[nH]5)c4)CC3)CCC2)CC1  CC50 (SK-OV-3): 6.2 µM
Oc1cc(Cl)ccc1Oc1ccc(Cl)cc1Cl  point of departure (HepG2; extracellular flux, item: oxygen consumption rate; 6 h, distribution mode 1): 1.29 µM
NC(=O)c1cccc2c1O/C(=C\c1ccc(C(=O)N[C@H]3CN4CCC3CC4)s1)C2=O  PARylation (SUM149; cellular PARylation, inhibitor, Western blot; with: H2O2): inhibited
Cn1nccc1Nc1nccc(-c2ccn([C@H](CO)c3ccc(Cl)c(F)c3)c(=O)c2)n1  PI-positive cells (HCT116; IncuCyte; concentration not given, 4 (unit not given)): 2.58 count and 2 count
CC[C@H](C)[C@@H]([C@@H](CC(=O)N1CCC[C@H]1[C@H](OC)[C@@H](C)C(=O)N[C@@H](Cc1ccccc1)C(=O)O)OC)N(C)C(=O)[C@@H](NC(=O)[C@H](C(C)C)N(C)C(=O)CCSSC[C@H](NC(=O)[C@@H](NC(=O)CNC(=O)[C@H](CCC(=O)O)NC(=O)[C@H](CC(=O)O)NC(=O)[C@H](C)NC(=O)[C@H](CC(=O)O)NC(=O)[C@@H](NC(=O)[C@H](CC(C)C)NC(=O)[C@H](CC(C)C)NC(=O)[C@H](C)NC(=O)[C@H](CC(C)C)NC(=O)[C@H](CC(=O)O)NC(=O)[C@H](CC(C)C)NC(=O)[C@H](CC(C)C)NC(=O)[C@H](CC(C)C)NC(=O)[C@H](CC(C)C)NC(=O)[C@@H]1CCCN1C(=O)[C@@H](NC(=O)[C@@H](NC(=O)[C@H](Cc1ccccc1)NC(=O)[C@H](CC(C)C)NC(=O)[C@H](Cc1c[nH]c2ccccc12)NC(=O)[C@H](CC(=O)O)NC(=O)[C@H](C)NC(=O)[C@H](Cc1ccc(O)cc1)NC(=O)[C@H](CCC(N)=O)NC(=O)[C@H](C)NC(=O)[C@H](Cc1c[nH]c2ccccc12)NC(=O)[C@H](Cc1ccc(O)cc1)NC(=O)[C@@H](NC(=O)[C@@H]1CCCN1C(=O)[C@H](CC(N)=O)NC(=O)[C@H](CCC(N)=O)NC(=O)[C@H](CCC(=O)O)NC(=O)[C@H](C)NC(=O)[C@H](C)N)[C@@H](C)CC)[C@@H](C)O)[C@@H](C)O)C(C)C)[C@@H](C)O)C(=O)NCC(N)=O)C(C)C  selectivity ratio (HeLa; cell growth, MTT; 2 h; baseline: IC50 pH 7.4 over IC50 pH 5.0): 5.3 fold
C[C@]12CC[C@H](O)C[C@H]1CC[C@@H]1[C@@H]2CC[C@]2(C)[C@@H](c3ccc(=O)oc3)CC[C@]12O  mRNA level (MCF7; RT-qPCR, item: PGR; 50 nM, 48 h, without estradiol, unit not given; baseline: untreated): 0.229 and 0.14 and 0.25
Oc1ccc(C2(c3ccc(O)cc3)c3ccccc3-c3ccccc32)cc1  inhibition (HepG2 spheroids; cell proliferation, flow cytometry, item: Ki67; 10 µM, 96 h; baseline: solvent control): 20.9%
Cn1cc2cc(C(F)(F)c3nnc4ccc(-c5cnn(C6CC6)c5)nn34)c(F)cc2n1  early apoptotic cells (MKN-45; annexin V/PI flow cytometry; 2 nM, 48 h): 5.14% and 5.06% and 5.64%

Repeated from above:
CC(c1ccccc1)(c1ccc(O)cc1)c1ccc(O)cc1  G1 phase cells (HepG2 spheroids; Hoechst flow cytometry; 1 µM, 96 h): 69.7 ± 7.18%
COc1ccc([C@H]2c3[nH]c4ccc(Cl)cc4c3CCN2C(=O)Oc2ccc(Cl)cc2)cc1  inhibition (human dermal fibroblasts with PBMC; cytokine secretion, item: sIL-10; 0.1 µM, 48 h): 81%
CN1CCN(C2(CNC3CCN(c4cccc(-c5cc6cc(F)ccc6[nH]5)c4)CC3)CCC2)CC1  CC50 (SK-OV-3): 6.2 µM
